Published values gathered from unrelated publications.
Lines come from different studies, so protocols differ. ± gives the spread as reported.
Organism: Plasmodium falciparum

The IC50 of `O=C1c2ccc3c4c(ccc(c24)C(=O)N1CCCn1ccnc1)C(=O)N(c1c2ccccc2nc2ccccc12)C3=O` is reported as 780 nM (parasite growth, SYBR Green; 3D7; 72 h, blood stage).
`COc1cc2c3c4c1Oc1cc5c(cc1O4)[C@H](Cc1ccc(OCCCN(C)C)c(c1)Oc1ccc(cc1)C[C@@H]3N(C)CC2)N(C)CC5` has an IC50 of 130 nM (parasite growth, SYBR Green; NF54; 72 h, blood stage).
`N#Cc1cccc(-n2nnnc2N2CCC(C(=O)N3CCCc4ccccc43)CC2)c1` gave an IC50 of 1700 nM (parasite growth, SYBR Green; 3D7; 72 h, blood stage).
For `COC1=CC(c2ccc[nH]2)=NC1=CNC1CCCCC1`, the IC50 was 49 nM (parasite growth, SYBR Green I fluorescence; D6, chloroquine-sensitive).
`N#Cc1c(-c2cccs2)[n+]([O-])c2ccccc2[n+]1[O-]` has an IC50 of 2970 ± 330 nM (parasite growth, [3H]hypoxanthine incorporation; 3D7 chloroquine-sensitive).
`COc1cc(C)ccc1NC(=O)C1c2ccccc2CCN1C(=O)OC(C)(C)C` (stereo not shown) has an IC50 of 32000 nM (parasite growth, SYBR Green; 3D7; 96 h, blood stage).
`O=C(C=CC(Cc1ccccc1)Nc1ccnc2cc(Cl)ccc12)NCCN1CCOCC1` (stereo not shown) has an IC50 of 44.9 nM (parasite growth; 3D7; blood stage).
`CC(C)=CCC/C(C)=C/Cc1c(CCC(=O)c2ccc(O)cc2O)ccc(O)c1O` gave an IC50 of 11600 nM (parasite growth, PfLDH; 3D7 expressing yeast DHODH).
The IC50 of `C[C@@H](C[C@@H](O)[C@H](O)C(C)(C)O)[C@@H]1CC[C@]2(C)C3=CC[C@H]4C(C)(C)[C@@H](O)CC[C@]4(C)[C@H]3CC[C@@]12C` is reported as 36800 ± 2000 nM ([3H]hypoxanthine incorporation; D6, chloroquine-sensitive).
`COc1ccc2c(c1)N(C(=O)C1CCN(c3nnnn3-c3ccccc3)CC1)CCC2` gave an IC50 of 1200 nM (parasite growth, SYBR Green; 3D7; 72 h, blood stage).
`CN(C(=O)c1ccn2ncc(-c3ccc(C(F)(F)F)cc3)c2c1)c1ccc(C#N)cn1` gave an IC50 of 74 ± 32 nM (parasite growth; 3D7).
For `CCN(CC)c1ccc2nc3c4ccccc4/c(=N/c4ccncc4)cc-3oc2c1`, the IC50 was 0.0032 µg/mL (parasite growth, [3H]hypoxanthine incorporation; NF54; 72 h).
With `CCC1=CC(c2ccc[nH]2)=NC1=CNC1CCCCCC1` the IC50 was greater than 250 nM (parasite growth, SYBR Green I fluorescence; D6, chloroquine-sensitive).
For `CC1(C)Cc2c(-c3cccc4ccccc34)ccc(O)c2C=N1`, the IC50 was 1630 nM (parasite growth, SYBR Green; NF54; 96 h, blood stage).
The IC50 of `CNC(=O)c1ccc(-c2cnn3ccc(C(=O)Nc4ccc(C#N)cn4)cc23)cc1` is reported as 521 nM (parasite growth; 3D7).
`CCCCCCN=Cc1[nH]c(-c2ccc[nH]2)cc1OC` has an IC50 of 34 nM (parasite growth, SYBR Green I fluorescence; D6, chloroquine-sensitive).
With `CC1=N[C@H](C)Cc2c(-c3ccc(C(F)(F)F)cc3)ccc(O)c21` the IC50 was 4000 nM (parasite growth, SYBR Green; NF54; 96 h, blood stage).
With `CC(C)(C)OC(=O)CNC(=O)[C@H](CCC(=O)N(O)c1ccc(Br)cc1)NC(=O)CC[C@H](N)C(=O)OC(C)(C)C` the IC50 was 35000 nM (blood-stage growth, Giemsa-stained smears; 3D7; 48 h, asynchronous culture).
For `COC1=CC(c2ccc[nH]2)=NC1=Cc1[nH]c(Cc2ccc(Cl)cc2)cc1Cc1ccc(Cl)cc1`, the IC50 was 6.1 nM (parasite growth, SYBR Green I fluorescence; D6, chloroquine-sensitive).
`CC(C)(C)OC(=O)/C=C/c1ccc(O)c(C(=O)C(CCC(=O)OC(C)(C)C)CCC(=O)OC(C)(C)C)c1` has an IC50 of 820 nM (parasite growth, 3H-hypoxanthine incorporation; NF54).
`CN(C)CCNC(=O)/C=C/C(Cc1ccccc1)Nc1ccnc2cc(Cl)ccc12` (stereo not shown) has an IC50 of 29.6 nM (parasite growth, flow cytometry; 3D7; 48 h, blood stage).
`O=C(C1CCN(c2nnnn2-c2ccc(Cl)cc2)CC1)N1CCCc2ccccc21` has an IC50 of 2000 nM (parasite growth, SYBR Green; 3D7; 72 h, blood stage).
For `c1ccc(CCCNc2ncnc3cc(OCC4CCN(CCNc5ccnc6ccccc56)CC4)ccc23)cc1`, the IC50 was 71 nM (parasite growth; NF54; blood stage).
For `Cc1cc(N2CCC(C#N)(C3(C)CC3)C2=O)cc(C(=O)NCc2cc(F)cc(-c3cnn(C)c3)c2)n1` (racemic), the IC50 was 18 nM (parasite growth, [3H]hypoxanthine incorporation; NF54 sensitive; 72 h).
For `CCOC1C(C)C2C(C=CC3C(C)C=CC=CC(C)OC(=O)C(C)C(=O)C(Cl)(Cl)C(=O)C32)CC1(C)O` (stereo not shown), the IC50 was greater than 11000 nM (parasite growth, ELISA; 3D7; blood stage).
`COc1ccccc1CNC(=O)CCn1c(=O)[nH]c2ccsc2c1=O` gave an IC50 of 140 nM (parasite growth; NF54; 72 h, blood stage).
`COC1=CC(c2ccc[nH]2)=NC1=CNC1CCCCCCC1` has an IC50 of 4.8 nM (parasite growth, SYBR Green I fluorescence; D6, chloroquine-sensitive).
For `COc1cc2nc(N3CCN(C)CC3)nc(NC3CCN(C)CC3)c2cc1OC`, the IC50 was greater than 300 nM (parasite growth, SYBR Green I; 3D7; 3 days).
`CCC1=C(C)C(=CNC23CC4CC(CC(C4)C2)C3)N=C1c1ccc[nH]1` gave an IC50 of 5.5 nM (parasite growth, SYBR Green I fluorescence; D6, chloroquine-sensitive).
`N#Cc1c(-c2cccs2)[n+]([O-])c2ccc(Cl)cc2[n+]1[O-]`: IC50 “inactive” (parasite growth, [3H]hypoxanthine incorporation; 3D7 chloroquine-sensitive).
`CC1=N[C@H](C)Cc2c(-c3ccc(C)cc3)ccc(O)c21` gave an IC50 of 990 nM (parasite growth, SYBR Green; NF54; 96 h, blood stage).
`Cc1nc(CN(C)c2ncnc3c2cnn3CCO)cs1` gave an IC50 of 3860 nM (parasite growth; NF54; 72 h, blood stage).
`COC1=CC(c2ccc[nH]2)=NC1=CN1CCCCC1` gave an IC50 of greater than 2500 nM (parasite growth, SYBR Green I fluorescence; D6, chloroquine-sensitive).
The IC50 of `CCCCCCCCCC1CC2CCCC3CC(CCCCCCCCC)NC(=N1)N23` (stereo not shown) is reported as 1760 nM (parasite growth, plasmodial LDH; W2 chloroquine-resistant).
`CC[C@H](C)[C@@H]1NC(=O)[C@H](CCCCN)NC(=O)[C@H](CCCCN)NC(=O)[C@H](Cc2ccc(O)cc2)NC(=O)[C@H](CC(C)C)NC(=O)[C@@H]2CCCN2C(=O)CNC(=O)CNC(=O)[C@@H](NC(=O)CN)CSSC[C@@H](C(=O)N[C@@H](CCC(=O)O)C(=O)N[C@@H](CO)C(N)=O)NC(=O)[C@H](CC(C)C)NC(=O)[C@H](CCCCN)NC(=O)[C@H](CCCCN)NC(=O)[C@H]([C@@H](C)CC)NC(=O)[C@H]([C@@H](C)CC)NC(=O)[C@H](CCCCN)NC(=O)[C@H](CCCCN)NC(=O)[C@H](Cc2ccc(O)cc2)NC(=O)[C@H](CC(C)C)NC(=O)[C@@H]2CCCN2C(=O)[C@H](C)NC(=O)CNC(=O)CNC(=O)[C@H](CO)NC(=O)CNC(=O)CNC(=O)[C@H](CO)NC(=O)[C@H](CCC(=O)O)NC(=O)[C@H](CC(C)C)NC(=O)[C@H](CC(C)C)NC(=O)[C@H](CCCCN)NC(=O)[C@H](CCCCN)NC(=O)[C@H]([C@@H](C)CC)NC1=O` gave an IC50 of 11900 ± 900 nM (parasite growth; 3D7; 72 h, 5% serum plus Albumax II).
`COc1ccc2c(c1)C1CC(C)(N2)c2c(C)nc3ccc(OC)cc3c21` (stereo not shown) has an IC50 of 2470 ± 146 nM (parasite growth, SYBR green I; INDO).
`COC(=O)c1cc2c([nH]c3ccccc32)c(-c2ccc3c(c2)OCO3)n1` gave an IC50 of 7.16 µg/mL (parasite growth; 3D7; 48 h, blood stage).
With `COc1cc(C)c(-c2ccc(O)c3c2C[C@@H](C)N[C@@H]3C)c2cccc(O)c12` (single isomer, unassigned) the IC50 was 234 nM (parasite growth, SYBR Green; NF54; 96 h, blood stage).
For `C[C@@H]1C(=O)O[C@@H](C)/C=C/C=C\[C@@H](C)[C@@H]2C=C[C@@H]3C[C@]4(C)O[C@@H]4[C@@H](C)[C@H]3[C@@H]2C(=O)C(Cl)(Cl)C1=O`, the IC50 was 100 nM (parasite growth, ELISA; 3D7; blood stage).
For `N#Cc1c(-c2cccs2)[n+]([O-])c2ccc(F)cc2[n+]1[O-]`, the IC50 was greater than 10000 nM (parasite growth, [3H]hypoxanthine incorporation; 3D7 chloroquine-sensitive).
With `N[C@@H](CNC(=O)N[C@@H](CCC(=O)N(O)c1ccc(Br)cc1)C(=O)NCC(=O)O)C(=O)O` the IC50 was 90000 nM (blood-stage growth, Giemsa-stained smears; 3D7; 48 h, asynchronous culture).
With `CCNCC#CCNc1ccnc2cc(Cl)ccc12` the IC50 was 34 ± 4 nM (parasite growth, SYBR Green I; 3D7; mean of experiments).
With `O=C1c2ccc3c4c(ccc(c24)C(=O)N1CCCn1ccnc1)C(=O)N(CCCn1ccnc1)C3=O` the IC50 was 260 ± 6.01 nM (parasite growth, SYBR Green I; 3D7, chloroquine-sensitive; 72 h).
For `COc1cc(O)c(-c2ccc(OC)c3c(OC)cc(C)cc23)c2c1[C@H](C)N(C)[C@H](C)C2`, the IC50 was 4510 nM (parasite growth; NF54; blood stage).
`C#Cc1cc(C(=O)C2=C(C)C(=O)c3ccccc3C2=O)ccc1C(F)(F)F` gave an IC50 of 2990 ± 750 nM (parasite growth, SYBR Green; Dd2; 72 h, synchronized ring stage).
For `COc1ccc2nc3cc(Cl)ccc3c(NCCN3CCN(C)CC3)c2c1`, the IC50 was 15.2 ± 5.97 nM (parasite growth, flow cytometry; 3D7; 72 h).
For `COC1=CC(c2ccc[nH]2)=NC1=CNC1CCCCCC1`, the IC50 was 23 nM (parasite growth, SYBR Green I fluorescence; D6, chloroquine-sensitive).
With `CC1C=CC=CC(C)C2C=CC3CC(C)(O)C(O)C(C)C3C2C(=O)C(Cl)(Cl)C(=O)C(C)C(=O)O1` (stereo not shown) the IC50 was greater than 2200 nM (parasite growth, ELISA; 3D7; blood stage).
For `COCn1ccc(NCCNCCCOc2ccc3c(NCCCc4ccccc4)ncnc3c2)nc1=O`, the IC50 was 2380 nM (parasite growth; NF54; blood stage).
With `COC1=CC(c2ccc[nH]2)=NC12OC(C)CC1CCCCCCCc3ccc([nH]3)C12` (stereo not shown) the IC50 was 2.3 nM (parasite growth; D6; blood stage).
The IC50 of `CC(C)(C)OC(=O)CNC(=O)[C@H](CCC(=O)N(O)c1ccc(Br)cc1)NC(=O)NC[C@H](N)C(=O)OC(C)(C)C` is reported as 30000 nM (parasite growth, imaging; 3D7; 48 h, blood stage).
The IC50 of `Clc1ccc2c(c1)nc(N1CCNCC1)n2CC1CCCCC1` is reported as 7880 nM (parasite growth; NF54; blood stage).
For `COc1cccc2c1CCCN2C(=O)C1CCN(c2nnnn2-c2ccccc2)CC1`, the IC50 was greater than 10000 nM (parasite growth, SYBR Green; 3D7; 72 h, blood stage).
`N[C@@H](CCC(=O)N[C@@H](CCC(=O)N(O)c1ccc(Br)cc1)C(=O)NCC(=O)OC1CCCC1)C(=O)OC1CCCC1` gave an IC50 of 30000 nM (blood-stage growth, Giemsa-stained smears; 3D7; 48 h, asynchronous culture).
With `CC(=O)O[C@@H]1C[C@H]2C(C)(C)C(=O)C=C[C@]2(C)[C@H]2CC[C@]3(C)C(=CC[C@H]3C3=CC(O)OC3=O)[C@@]21C` (stereo partly shown) the IC50 was 2400 nM ([3H]hypoxanthine incorporation; D6, chloroquine-sensitive).

A few entries again:
For `N#Cc1c(-c2cccs2)[n+]([O-])c2ccc(F)cc2[n+]1[O-]`, the IC50 was greater than 10000 nM (parasite growth, [3H]hypoxanthine incorporation; 3D7 chloroquine-sensitive).
`CC[C@H](C)[C@@H]1NC(=O)[C@H](CCCCN)NC(=O)[C@H](CCCCN)NC(=O)[C@H](Cc2ccc(O)cc2)NC(=O)[C@H](CC(C)C)NC(=O)[C@@H]2CCCN2C(=O)CNC(=O)CNC(=O)[C@@H](NC(=O)CN)CSSC[C@@H](C(=O)N[C@@H](CCC(=O)O)C(=O)N[C@@H](CO)C(N)=O)NC(=O)[C@H](CC(C)C)NC(=O)[C@H](CCCCN)NC(=O)[C@H](CCCCN)NC(=O)[C@H]([C@@H](C)CC)NC(=O)[C@H]([C@@H](C)CC)NC(=O)[C@H](CCCCN)NC(=O)[C@H](CCCCN)NC(=O)[C@H](Cc2ccc(O)cc2)NC(=O)[C@H](CC(C)C)NC(=O)[C@@H]2CCCN2C(=O)[C@H](C)NC(=O)CNC(=O)CNC(=O)[C@H](CO)NC(=O)CNC(=O)CNC(=O)[C@H](CO)NC(=O)[C@H](CCC(=O)O)NC(=O)[C@H](CC(C)C)NC(=O)[C@H](CC(C)C)NC(=O)[C@H](CCCCN)NC(=O)[C@H](CCCCN)NC(=O)[C@H]([C@@H](C)CC)NC1=O` gave an IC50 of 11900 ± 900 nM (parasite growth; 3D7; 72 h, 5% serum plus Albumax II).
`COC(=O)c1cc2c([nH]c3ccccc32)c(-c2ccc3c(c2)OCO3)n1` gave an IC50 of 7.16 µg/mL (parasite growth; 3D7; 48 h, blood stage).
For `COC1=CC(c2ccc[nH]2)=NC1=CNC1CCCCC1`, the IC50 was 49 nM (parasite growth, SYBR Green I fluorescence; D6, chloroquine-sensitive).
`COc1ccc2c(c1)C1CC(C)(N2)c2c(C)nc3ccc(OC)cc3c21` (stereo not shown) has an IC50 of 2470 ± 146 nM (parasite growth, SYBR green I; INDO).
`CN(C(=O)c1ccn2ncc(-c3ccc(C(F)(F)F)cc3)c2c1)c1ccc(C#N)cn1` gave an IC50 of 74 ± 32 nM (parasite growth; 3D7).
With `N[C@@H](CNC(=O)N[C@@H](CCC(=O)N(O)c1ccc(Br)cc1)C(=O)NCC(=O)O)C(=O)O` the IC50 was 90000 nM (blood-stage growth, Giemsa-stained smears; 3D7; 48 h, asynchronous culture).
